Experimental data pooled from the literature.
Compare with care: the assays were run in different laboratories. ± marks the error that the study gave.

| Structure (SMILES) | test | test system | conditions | how to read | measurement | result |
| --- | --- | --- | --- | --- | --- | --- |
| C/C(N)=N/C(=N\S(=O)(=O)c1ccc(C(F)(F)F)cc1)N1C[C@H](c2ccccc2)C(c2ccc(Cl)cc2)=N1 | – | beagle dog, plasma | oral, 6 mg/kg | – | AUC(0-inf) | 12400 ng·h/mL |
| N#CCNC(=O)c1ccc([C@H]2[C@@H](F)[C@@H](F)C[C@@H](F)[C@H]2F)cc1 | liver microsome stability | cynomolgus liver microsomes | 1 µM | – | hepatic clearance | 11 mL/min/kg |
| COc1cnc2cccc(N3CCc4c(cc(Cn5ccnc5)cc4-c4cn(C)nc4C(F)(F)F)C3=O)c2c1 | – | CD-1 mouse, male, plasma | intraperitoneal, 50 mg/kg | – | AUC extrapolated fraction | 0% |
| C=C(NC(=O)c1csc(-c2nc3c(cc2O)-c2nc(cs2)C(=O)NC(C(C)O)C(=O)NC(=C(C)OC)c2nc(cs2)C(=O)NC2c4nc(cs4)C(=O)NC(COC(=O)c4c5c6c(cccc6n4O)COC(=O)C(OC4CC(C)(O)C(N(C)C)C(C)O4)C2OC5)c2nc-3cs2)n1)C(N)=O (centres unmarked) | – | male Sprague-Dawley rat, plasma | intravenous, 18 mg/kg, single dose, infusion | – | half-life | 6.14 h |
| O=C(c1ccc(C2CCCCC2)cc1)N1CCC(F)CC1 | hepatocyte stability | cryopreserved rat hepatocytes | 1 µM | – | hepatic clearance | 46 mL/min/kg |
| COc1cccc(OC)c1-c1cc(C(=O)NC2(C(=O)O)C3CC4CC(C3)CC2C4)nn1-c1ccc(C(=O)N(C)CCOCCOCCN(C)C(=O)[C@H](CCCCNC(=O)[C@H](CC(C)C)NC(=O)C2OC2C(=O)O)NC(=O)CN2CCN(CC(=O)[O-])CCN(CC(=O)[O-])CCN(CC(=O)[O-])CC2)cc1C(C)C.[177Lu+3] (mixture of isomers) | – | mouse, HT-29 xenograft | 72 h post injection, biodistribution | reference: tumour over bone uptake | tumour-to-bone ratio | 4.95 |
| C=C1C[C@]2(C(=O)OC)C=C(C(=O)Nc3cccc(C(=O)Nc4ccc(Nc5nccc(-c6cccnc6)n5)c(C)c4)c3)C(=O)[C@H]1C2 | – | Wistar rat, male, plasma | 10 µM, 10 min | – | compound remaining | 19.6% |
| CS(=O)(=O)c1ccc(-c2ccc(C3CCCCC3)cc2)cn1 | liver microsome stability | cynomolgus liver microsomes | 1 µM | – | hepatic clearance | 36 mL/min/kg |
| OC1(C(F)(F)F)CCN(c2nc(Nc3ccnc(C(F)(F)F)c3)nc(-c3cccc(C(F)(F)F)n3)n2)C1 (centres unmarked) | – | Sprague-Dawley rat, both sexes, plasma | oral gavage, 5 mg/kg, day 14 | – | AUC(0-24 h) | 13600 ± 3040 ng·h/mL |
| COc1ccc2c(c1)O[B-]1(c3ccccc3)OC(=O)C(c3ccccc3)=N[N+]1=C2 (centres unmarked) | – | toluene | – | – | fluorescence quantum yield | 0.12 |
| O=C(c1ccc(-c2ccccc2)cc1)N1CCCCC1 | – | pooled human liver microsomes | 2 µM, pH 7.4 | – | elimination rate constant | 8.33e-05 s⁻¹ |
| C=CC(=O)Nc1cc(Nc2nccc(-c3cn(C)c4ccccc34)n2)c(OC)cc1N(C)CCNC | storage stability | human plasma | 24 h, -80 °C, medium QC level | – | recovery | 100% |
| CC(C)(O)c1ncc([S@](N)(=O)=NC(=O)Nc2c3c(cc4c2CCC4)CCC3)s1 | measured: metabolism, nutrition disorders | healthy human | oral, 100 mg, all formulations pooled | – | subjects with TEAEs | 17% |
| Nc1ncc(-c2ccc(C3CCCCC3)cc2)cn1 | liver microsome stability | mouse liver microsomes | 1 µM | – | hepatic clearance | 61 mL/min/kg |
| Fc1ccc(OCC2CN(Cc3ncn4ccccc34)CCC2(F)F)cc1 (centres unmarked) | equilibrium dialysis | mouse plasma | – | – | fu | 0.046 |
| O=C(NCc1cccc(Cl)c1)c1ccc(C2CCCCC2)cc1 | hepatocyte stability | cryopreserved human hepatocytes | 1 µM | – | hepatic clearance | 12 mL/min/kg |
| O=C(Nc1cnccc1-c1ccc([18F])nc1)c1ccnc(NC(=O)C2CC2)c1 | – | FVB/NJ mouse, both sexes, liver | intravenous, 30 min, with: tariquidar 15 mg/kg iv | – | SUV | 8.82 |

Some of these lines once more:
| Structure (SMILES) | test | test system | conditions | how to read | measurement | result |
| --- | --- | --- | --- | --- | --- | --- |
| OC1(C(F)(F)F)CCN(c2nc(Nc3ccnc(C(F)(F)F)c3)nc(-c3cccc(C(F)(F)F)n3)n2)C1 (centres unmarked) | – | Sprague-Dawley rat, both sexes, plasma | oral gavage, 5 mg/kg, day 14 | – | AUC(0-24 h) | 13600 ± 3040 ng·h/mL |
| COc1ccc2c(c1)O[B-]1(c3ccccc3)OC(=O)C(c3ccccc3)=N[N+]1=C2 (centres unmarked) | – | toluene | – | – | fluorescence quantum yield | 0.12 |
| O=C(c1ccc(-c2ccccc2)cc1)N1CCCCC1 | – | pooled human liver microsomes | 2 µM, pH 7.4 | – | elimination rate constant | 8.33e-05 s⁻¹ |
